Assay results of several laboratories.
Numbered parts are unrelated; each lists some results of a single study. Positions count from the first letter of the parent shown.
Sequence of UniProt P46098 (whole entry, looked up): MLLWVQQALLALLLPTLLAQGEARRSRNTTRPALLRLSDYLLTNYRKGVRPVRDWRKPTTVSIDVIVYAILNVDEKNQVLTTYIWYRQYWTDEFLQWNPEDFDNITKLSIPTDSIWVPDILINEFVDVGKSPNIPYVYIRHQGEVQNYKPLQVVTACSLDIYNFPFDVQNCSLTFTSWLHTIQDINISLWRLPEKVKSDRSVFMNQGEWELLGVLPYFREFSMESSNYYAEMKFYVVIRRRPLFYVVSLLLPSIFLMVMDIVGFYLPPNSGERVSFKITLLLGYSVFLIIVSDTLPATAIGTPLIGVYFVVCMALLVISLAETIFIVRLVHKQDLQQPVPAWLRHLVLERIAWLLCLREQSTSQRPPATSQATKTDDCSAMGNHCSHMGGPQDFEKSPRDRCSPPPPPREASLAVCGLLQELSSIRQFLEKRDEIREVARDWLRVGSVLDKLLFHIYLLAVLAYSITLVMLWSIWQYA
Sequence of UniProt Q9H3N8 (whole entry, looked up): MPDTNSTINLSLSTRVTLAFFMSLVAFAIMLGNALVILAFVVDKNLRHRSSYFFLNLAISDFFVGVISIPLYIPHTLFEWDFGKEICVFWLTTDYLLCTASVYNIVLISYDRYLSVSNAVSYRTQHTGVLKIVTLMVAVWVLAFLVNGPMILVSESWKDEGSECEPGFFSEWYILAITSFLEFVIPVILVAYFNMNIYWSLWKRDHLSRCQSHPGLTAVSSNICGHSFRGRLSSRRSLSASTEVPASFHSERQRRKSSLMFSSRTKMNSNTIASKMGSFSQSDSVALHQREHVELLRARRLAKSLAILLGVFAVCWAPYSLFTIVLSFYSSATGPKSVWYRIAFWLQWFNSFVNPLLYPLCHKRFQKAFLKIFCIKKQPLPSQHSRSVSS
Sequence of UniProt P25100 (whole entry, looked up): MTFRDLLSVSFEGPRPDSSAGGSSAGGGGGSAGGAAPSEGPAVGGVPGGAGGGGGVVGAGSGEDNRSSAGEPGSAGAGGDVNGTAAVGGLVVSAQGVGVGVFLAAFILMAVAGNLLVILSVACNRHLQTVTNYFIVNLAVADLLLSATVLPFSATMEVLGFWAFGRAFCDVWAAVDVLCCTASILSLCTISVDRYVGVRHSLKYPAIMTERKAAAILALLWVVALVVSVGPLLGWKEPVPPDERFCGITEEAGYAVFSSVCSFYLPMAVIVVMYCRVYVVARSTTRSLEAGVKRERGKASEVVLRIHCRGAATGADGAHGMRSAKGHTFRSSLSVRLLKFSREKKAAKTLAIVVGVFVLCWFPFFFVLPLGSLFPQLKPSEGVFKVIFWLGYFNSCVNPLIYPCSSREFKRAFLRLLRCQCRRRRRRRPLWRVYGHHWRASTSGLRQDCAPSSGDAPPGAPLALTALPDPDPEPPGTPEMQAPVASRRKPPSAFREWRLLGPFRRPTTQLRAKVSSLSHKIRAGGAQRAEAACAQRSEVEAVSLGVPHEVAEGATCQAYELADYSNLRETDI
Sequence of UniProt P21917 (whole entry, looked up): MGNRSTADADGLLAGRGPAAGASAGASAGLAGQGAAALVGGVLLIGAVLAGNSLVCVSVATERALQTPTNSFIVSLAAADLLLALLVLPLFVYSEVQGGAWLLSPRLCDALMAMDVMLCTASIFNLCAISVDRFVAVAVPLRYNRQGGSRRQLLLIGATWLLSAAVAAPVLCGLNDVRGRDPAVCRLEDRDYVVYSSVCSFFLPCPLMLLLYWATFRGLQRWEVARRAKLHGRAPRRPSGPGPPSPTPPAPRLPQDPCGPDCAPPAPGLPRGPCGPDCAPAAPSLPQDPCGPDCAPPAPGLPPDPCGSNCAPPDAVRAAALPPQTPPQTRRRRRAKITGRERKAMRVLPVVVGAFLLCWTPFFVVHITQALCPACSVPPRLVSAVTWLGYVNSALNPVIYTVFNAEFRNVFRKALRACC

Study 1
Target: Sal-like protein 4, full length isoform B (SALL4, Homo sapiens, UniProt Q9UJQ4-2, residues 1-616)
Method: universal PBM
Form: double-stranded DNA, one strand shown
Matrix: in vitro
Tested at: not given
Notes: 8-mer, flanks averaged, mean of replicates
Reading: higher = stronger binding
Residues (chain): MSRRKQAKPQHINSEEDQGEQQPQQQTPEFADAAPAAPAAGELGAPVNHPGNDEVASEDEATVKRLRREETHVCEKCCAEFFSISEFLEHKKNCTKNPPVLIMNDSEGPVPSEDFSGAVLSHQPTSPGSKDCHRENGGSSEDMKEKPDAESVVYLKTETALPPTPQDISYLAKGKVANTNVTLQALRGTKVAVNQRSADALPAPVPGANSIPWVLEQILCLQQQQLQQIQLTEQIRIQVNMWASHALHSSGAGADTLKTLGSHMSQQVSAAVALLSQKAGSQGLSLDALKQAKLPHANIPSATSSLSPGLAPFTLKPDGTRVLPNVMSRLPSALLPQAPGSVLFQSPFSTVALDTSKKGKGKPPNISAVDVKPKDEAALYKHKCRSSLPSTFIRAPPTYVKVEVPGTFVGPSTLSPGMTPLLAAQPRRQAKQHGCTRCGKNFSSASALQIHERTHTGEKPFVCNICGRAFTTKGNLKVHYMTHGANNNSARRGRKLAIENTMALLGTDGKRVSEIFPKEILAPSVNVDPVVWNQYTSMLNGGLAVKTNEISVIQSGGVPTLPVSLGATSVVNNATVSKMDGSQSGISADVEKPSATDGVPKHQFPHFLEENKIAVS
Oligonucleotide | E-score
AGCGCCTA | -0.145
ATAAGTTC | 0.248
AACTCCGA | -0.152
AAGCGAAG | -0.0468
CCCAAACA | 0.00837
CAGGTGTA | -0.0702
ATAGTCGC | 0.0569
ACCACAGC | -0.25

Study 2
Target: ABI1, truncated, D143A, DHFR fusion (Arabidopsis thaliana, UniProt P49597)
Method: DHFR PCA, dose-response
Matrix: yeast
Notes: Hill fit, not affinity, not high confidence
Added: (+)-ABA, dose series
Reading: lower = more sensitive
Starting sequence: PYL1, truncated, DHFR fusion (Arabidopsis thaliana, UniProt Q8VZS8); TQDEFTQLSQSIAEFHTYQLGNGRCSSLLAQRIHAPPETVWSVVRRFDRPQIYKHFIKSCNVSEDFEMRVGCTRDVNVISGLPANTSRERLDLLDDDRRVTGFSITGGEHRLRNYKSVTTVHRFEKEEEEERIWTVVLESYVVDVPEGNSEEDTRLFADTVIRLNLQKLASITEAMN
Substitution | ABA EC50
K54Q | 1.27 µM
K54Y | 3.57 µM
E89G | 209 µM
L28D | 458 µM
N165C | 703 µM
P50E | 6.19 µM
T106I | 0.0366 µM
F56E | 9.12 µM

Study 3
Target: Calcium/calmodulin-dependent protein kinase type 1D (CAMK1D, Homo sapiens, UniProt Q8IU85)
Sequence of UniProt Q8IU85 (whole entry, looked up): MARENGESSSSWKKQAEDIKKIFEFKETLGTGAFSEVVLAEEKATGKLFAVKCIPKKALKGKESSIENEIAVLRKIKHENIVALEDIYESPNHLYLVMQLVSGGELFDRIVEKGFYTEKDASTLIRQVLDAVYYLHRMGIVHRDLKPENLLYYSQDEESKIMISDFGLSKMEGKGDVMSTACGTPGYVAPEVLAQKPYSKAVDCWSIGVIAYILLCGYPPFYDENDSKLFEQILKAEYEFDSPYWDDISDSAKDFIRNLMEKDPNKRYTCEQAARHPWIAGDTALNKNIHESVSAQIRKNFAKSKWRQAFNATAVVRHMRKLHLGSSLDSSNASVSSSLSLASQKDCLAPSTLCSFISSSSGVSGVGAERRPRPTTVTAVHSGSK
Read-out: enzyme activity
Mode: inhibitor
Tested at: 0.5 µM
Relative to: control
SMILES | remaining activity [%]
COc1ccc(OC)c2c(=S)c3ccccc3[nH]c12 | 104
COc1cc2ncnc(Nc3ccc(Oc4ccccc4)cc3)c2cc1OC | 99.7
CNC(=O)c1cc(Oc2ccc(NC(=O)Nc3ccc(Cl)c(C(F)(F)F)c3)cc2)ccn1 | 103
O=C1NC(=O)C(c2cn(CCCO)c3ncccc23)=C1c1cnccn1 | 95.1
CC(C)[C@H](CO)Nc1nc(Nc2cc(N)cc(Cl)c2)c2ncn(C(C)C)c2n1 | 103
Cc1nc(-c2ccccc2)c(-c2ccncc2)o1 | 93.9
O=C(CCCc1ccc(-c2ccccc2F)cc1)Nc1ccc(O)cc1 | 122
Cn1sc(=O)n(Cc2ccccc2)c1=O | 97.1
OCC(O)CCON=C1C(c2c(O)[nH]c3ccccc23)=Nc2ccccc21 (stereo not drawn) | 80.3
O=S(=O)(c1cccc2cnccc12)N1CCCNCC1 | 91.5
COc1ccc(C(=O)Nc2sc3c(c2C(N)=O)CCCC3)cc1OC | 93.8
N#CC(C#N)=C(N)/C(C#N)=C/c1ccc(O)cc1 | 98.9
C#Cc1cccc(Nc2ncnc3cc(OCCOC)c(OCCOC)cc23)c1 | 98.8

Study 4
SMILES: O=C(NCc1ncc(C(F)(F)F)cc1Cl)c1ccc2c(c1)C1(CCS(=O)(=O)CC1)[C@H](C1CC1)N2S(=O)(=O)c1ccc(F)cc1
Tested at: 10 µM
target | assay | inhibition [%]
ADRA1D (Homo sapiens, UniProt P25100) | ligand displacement | 4.13
DRD4 (Homo sapiens, UniProt P21917) | ligand displacement | 1.57
HTR3A (Homo sapiens, UniProt P46098) | cell-free assay | 1.44
HRH4 (Homo sapiens, UniProt Q9H3N8) | ligand displacement | -9.53

Some of these lines once more (study 2):
Substitution | ABA EC50
F56E | 9.12 µM
P50E | 6.19 µM
E89G | 209 µM
T106I | 0.0366 µM
L28D | 458 µM
N165C | 703 µM
